Results collected from several papers.
A part holds a random share of what one study measured.

Series 1 — technique: competition protein-binding microarray; form: double-stranded DNA, one strand shown; sample: in vitro; tested at: 2 µM; together with: Cbf1 competitor, 0.05 µM; direction: higher = stronger binding; constant ends, left off below: … GTCTTGATTCGCTTGACGCTGCTG
Target: Phosphate system positive regulatory protein PHO4, full length, GST-tagged (PHO4, Saccharomyces cerevisiae, UniProt P07270, residues 1-312)
Notes: whole 60-bp probe, lowest competitor level
Construct (chain): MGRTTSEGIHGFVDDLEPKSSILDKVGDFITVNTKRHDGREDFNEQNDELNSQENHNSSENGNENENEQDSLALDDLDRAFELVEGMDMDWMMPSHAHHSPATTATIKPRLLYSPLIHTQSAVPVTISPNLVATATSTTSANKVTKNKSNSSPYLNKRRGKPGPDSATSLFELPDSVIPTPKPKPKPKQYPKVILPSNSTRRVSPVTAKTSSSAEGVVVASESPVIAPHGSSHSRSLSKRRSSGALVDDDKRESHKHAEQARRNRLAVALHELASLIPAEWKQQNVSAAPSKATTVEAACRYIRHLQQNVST
Oligonucleotide | fluorescence intensity [a.u.]
CTTTCCCGATCTTGTGTGGTGGGTGTAGCACATTTG | 5770
TCTTTACGGGCAGATGCTGTCTCCACTATTAACTTG | 3840
CTGGAGCTGTTTCCAAACGTGGCCGGGCAATTGAGC | 9380
GTCTTGTCTCATTTTCACGTGCCGTTCCCCACTTCA | 13100
GCAATACTTATTTTTGAAGCCGGATCCCTAATTGCT | 2450
GATTTACAGGCCTGGCACGGCGATTGGCCATTACCT | 3970
CTTCTGTAAATTTGCGTTGTGGGTGGACGCGCCCCG | 4590
TCCGCGATCGCCGGCCACGGGCCGTCGGCGGCTGTT | 6350
CACTTATCTGTTGAAAAGGTGTGCCTATAGCAACTA | 6880
AAAGCGGTAATTTGTTTGGTGGGTGCAGATATCTAT | 4240
CGGGGTTAAGTTTGCTCGGTGGGTGGCTTGCAGCAG | 4810
CATACCCAACCTTTCCACGTGTTTTAAGATATTTGT | 18900
GAGTAAAGATGTTAGCACGTGATGGGCTGCAGAGGT | 18600
CTTCTGTAAATTTGTAGGGTGGGTGGACGCGCCCCG | 4910
GCTCAAAAACCCCGTCACGTCATAAATCTTTCTGTT | 4640
ACACCTGGGTTTCCGCACGTGTTTCACCATCCCAAA | 18000
ATTGACATAATCAGAAACGTGCTTTATCAATTGTGC | 13400

Series 2 — technique: protein binding microarray; form: double-stranded DNA, one strand shown; sample: in vitro; tested at: not given; baseline: not given; direction: higher = stronger binding
Target: Histone acetyltransferase KAT6A, both winged helices, GST fusion (KAT6A, Homo sapiens, UniProt Q92794, residues 1-181)
Notes: 8-mer, flanks averaged, mean of 2 arrays, mostly near background
Construct (chain): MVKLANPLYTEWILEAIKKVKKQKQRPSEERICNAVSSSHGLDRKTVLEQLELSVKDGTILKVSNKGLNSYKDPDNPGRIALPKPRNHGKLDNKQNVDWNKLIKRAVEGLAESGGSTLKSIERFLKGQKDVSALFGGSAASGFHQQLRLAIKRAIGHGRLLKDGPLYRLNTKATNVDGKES
Oligonucleotide | E-score
GCCTATGA | 0.0268
AACAAGGA | -0.00233
GGTCAGAA | -0.0457
AGTCTGCG | 0.0197
GCAAAGAC | -0.00841
CCAGTCCC | -0.168
AGCCCTGA | -0.124
ATCTTATG | -0.0757
GACGCCCA | 0.0138
CTCATGTC | -0.00847
CAGGTGGA | -0.198
AACTTCTC | -0.081
GTCGGGAA | 0.133
ACTATGTG | -0.0804
ACTACAAT | 0.011
CGGGCGAA | 0.225
GAAATTAC | -0.0121
AGGGGGGA | -0.321
ACAACTGG | -0.148
CAGCGAGA | -0.0175
GTGGCTAA | -0.0289
GTTAAGCA | 0.0332
AGCCTTTG | -0.215
ACTACTTC | 0.00082

Series 3 — technique: RNA Bind-n-Seq; form: RNA; sample: in vitro; tested at: 1 µM; notes: whole 134-nt RNA, ends assumed; together with: 150 mM KCl; baseline: input library; direction: higher = stronger binding
Target: Ras GTPase-activating protein-binding protein 1, RRM domain (G3BP1, Homo sapiens, UniProt Q13283)
UniProt Q13283, sequence (whole entry, looked up): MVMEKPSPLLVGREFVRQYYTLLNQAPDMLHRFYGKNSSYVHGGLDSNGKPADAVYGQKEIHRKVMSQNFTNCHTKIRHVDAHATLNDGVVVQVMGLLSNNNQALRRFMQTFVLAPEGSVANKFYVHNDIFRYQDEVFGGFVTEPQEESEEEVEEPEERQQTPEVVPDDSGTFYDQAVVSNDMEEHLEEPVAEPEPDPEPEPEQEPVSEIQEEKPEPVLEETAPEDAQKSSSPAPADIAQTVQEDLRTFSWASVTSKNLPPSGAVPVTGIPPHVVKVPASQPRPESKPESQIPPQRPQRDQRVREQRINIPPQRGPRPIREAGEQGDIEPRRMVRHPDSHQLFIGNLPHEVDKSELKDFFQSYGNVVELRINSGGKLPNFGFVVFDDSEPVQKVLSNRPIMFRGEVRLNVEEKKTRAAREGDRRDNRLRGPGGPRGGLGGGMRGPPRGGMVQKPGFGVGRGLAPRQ
Constant ends, left off below: GGGAGUUCUACAGUCCGACGAUC … UGGAAUUCUCGGGUGUCAAGG
Oligonucleotide | log2 enrichment
CUCAAGUCCUGUGCUACACAUCGUAUGUACCGAAUCGGAAAGGUUUUUGGUGGAAAGUAUUAUGUUACGCCGUUCGGAUCUGCACUUCCA | -0.232
GUCCUGUGCUACACAUCGUAUGUACCGAAUCGGCCCCCCGGCCCCCCGGGCCCCCCGGAAAGUAUUAUGUUACGCCGUUCGGAUCUGCAC | -0.422
ACCAUGCAGGUGGGCAUCUUUAGGAAGUGGGGCAAGGGGGGGAUAGGGAGGGGGGUAACACUUUGGGAACAGGUGGUCCCAGGUCGUUUC | -0.388
UUCCGGAAGAAGAAGCUCCGAUUUGGCCGGAGCCGGAUCCACGAGUGGGGUCUGUUUGCCAUGGAACCCAUUGCUGCUGACGAGAUGGUC | -0.224
CCUGUGCUACACAUCGUAUGUACCGAAUCGGGGUUUGGGGUUUUUUUGGGGAAAAAGGGGAAAGUAUUAUGUUACGCCGUUCGGAUCUGC | 1.03
UCGCCCUGGUGGCAUGCGGGGAGGAAGAGGUGGCCUCAUGGAUCGUGGUGGUCCCGGUGGAAUGUUCAGAGGUGGCCGUGGUGGAGACAG | 0.733
UCCCAGCCGAGGACGUCGGAUGUCAUCGUCCUUGCUGCUUUGCCACCCCAUUCCCGUCAAUAAAGUGGUUUGAACCCAACCCUGGUGUCG | 0.725
UCCUGUGCUACACAUCGUAUGUACCGAAUCGGGCCCCCCGGCCCCCCGGCCCCCCGGGGAAAGUAUUAUGUUACGCCGUUCGGAUCUGCA | -0.482
UCCUCAAGUCCUGUGCUACACAUCGUAUGUACCGAAUCGGGUGGUGGGGUGGAAAGUAUUAUGUUACGCCGUUCGGAUCUGCACUUCCAG | -0.1
CAAGUCCUGUGCUACACAUCGUAUGUACCGAAUCGGUUUUUUUGGUUUGGUUUGGAAAGUAUUAUGUUACGCCGUUCGGAUCUGCACUUC | -0.351
UAACUUUAGAGGAGGAUCUGAUGGAUAUUGCAGUGGACGUGGAUUUGGGGAUGGCUAUAAUGGGUAUGGAGGAGGACCUGGAGGUGGCAA | -0.724
CACAGACAACACGCACCCACACAGACACAGAGGGAAGGGGUUGGGAUGGGGACAGGGUGCACAGCAGGGCGGGGUAGGAAACCAGCCCCU | -0.164
UUUCUCCACAGGAGCCCCGCAAGUGAGCCAGCCACUGCGAGAGCAGAGUGAGGAUAUACCUGGAGCCAUUUCCUCUGCCCUGGCAGCCAU | 0.185
CCUCAAGUCCUGUGCUACACAUCGUAUGUACCGAAUCGGUGGGGUGGGUGGGGAAAGUAUUAUGUUACGCCGUUCGGAUCUGCACUUCCA | 0.298

Series 4 — technique: RNA Bind-n-Seq; form: RNA; sample: in vitro; tested at: 365 nM; baseline: no-protein control; direction: higher = stronger binding
Target: RNA binding protein fox-1 homolog 2, RRM domain, GST-SBP tag (RBFOX2, Homo sapiens, UniProt O43251-10, residues 100-194)
Notes: natural RNA segment, single round, ends assumed
Constant ends, left off below: GGGAGUUCUACAGUCCGACGAUC … UGGAAUUCUCGGGUGCCAA
Construct (chain): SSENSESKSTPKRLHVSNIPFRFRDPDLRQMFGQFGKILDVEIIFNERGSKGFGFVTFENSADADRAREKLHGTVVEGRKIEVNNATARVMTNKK
Oligonucleotide | RBNS enrichment (R)
CUCGGUUCACUGUUUGUUUUCGAAUGCCUUGUUUUCAUAGAGCCCUAUUCUCUCAGACGGUGGAAUAUUUGGAAAAAUUUUAAAACAAUUAAAAUUUUAAAGCAAUCUUG | 0.529
UGAGACAUAGGGUCACUAGAGACCCUUCUGGGUCAGAGGAGAGAGACUGAAUUGGACUAAACCCGUCCUCUGUUCCCAGCACGUUUCUCAUAUAGCCCUCAGUCACUGAG | 2.22
UAGAUCUAUUUGACUUAAUAAGUAGGAACCCCCUUUGCCCUUCCCCCAUCUCCUCUCCCUUACUGUAGCAUUUCUGUCAUGUAAGAGGUGCUGACAGCCACUUCCGUGUC | 0.772
AGAUACUCUAGGAUGAUCACUUGUGCUUAGCUUAGCAUUGUAACUCUUUAAGUCUAUAUUUUCCUCAGUGCGUUUCUUUACAAUUUCAAAUGUUACCCUGAUUGUUUAUA | 0.516
CCGUGCUAGUUUCCCGAGUUCAGACUCUCAGCUUUGGUUUGGUUUUGGUUUUGGUUUUUUGUUCUUCAUACUCAAGUGUCUCCGUUGGUCCAGAUACUUCUCUGUGAAAG | 1.03
CAAGUUUGAAAAGUUCAAAUUAACCACUUUUGACUAGGUAAGUCUUUCUAAAAACCAUUUAAAGCUAACUGGGUCUUAGCAUCCUCCUGUGUAUGGAAGAGACAGGUGAC | 0.406
AAGGAUAUGAACAUUUUCAAGAACUCUGCUGAGGUCACUUAGAGCGCCAUCACAACUUAUUUGUGUGACUAAUUGCCUAGAUUGUAAGCUCUUUGAGGGCAGGGCUUGUC | 0.832
UAAAUCUAACCUGACUUAAACAUAUGCCUGUUUUUAUGUUUACCUAUAAUUUUCAUAUAGCCGUAUAAGGAUUGAUUUACCAUUUUUUGCCCAACAUGACAAUUCUGGCU | 3.75
GUCAUAGUUGAAAUGAUGUUUAUUGUAGAUGGUAUUUGAACUUAUUCUUCUGGAAAUAGUUCAUCAAGUAUGUUUGUUGCUCAUUGUGAUACAUUAAAAACUGUAUCUGC | 0.833
GGGCAAAAUGUUUGGUUUUUUCUCUUAAAAAAAAUAACACCCCAUUACCAAAAGAAAAGGUAAGGUGGCAACCUUAUUUUUAAUAGUUUGAAAUGAUGAUAAUCCUAAUU | 0.543
GGUGCUGCUGUCACCCAGCUAUCUCUCCUUCCUCUAUGAUCUUUGUUUUCUGCCUUCCCACCUUCUCCCCCAGUGUUCGGAUGAAUGUUCCUGGCUGUCUCUGUUCCCUU | 1.6
UUCUCAAGCCUAUUACUCUAGAGCUGUAAAAGCUCUUGCACAGCAUUGUUGUGUCAGUGUAGAAUAGUGGCAUAAAUAAAUGAAUUAAGCUACAUUUCCAUGCAGGCAUU | 0.282

A few entries again (series 2):
Oligonucleotide | E-score
GAAATTAC | -0.0121
AGGGGGGA | -0.321
ACAACTGG | -0.148
CAGCGAGA | -0.0175
GTGGCTAA | -0.0289
GTTAAGCA | 0.0332
AGCCTTTG | -0.215
ACTACTTC | 0.00082
